Results pooled from the literature.
Numbered parts are unrelated; each lists some results of a single study.
UniProt Q92985, sequence (whole entry, unmodified, looked up): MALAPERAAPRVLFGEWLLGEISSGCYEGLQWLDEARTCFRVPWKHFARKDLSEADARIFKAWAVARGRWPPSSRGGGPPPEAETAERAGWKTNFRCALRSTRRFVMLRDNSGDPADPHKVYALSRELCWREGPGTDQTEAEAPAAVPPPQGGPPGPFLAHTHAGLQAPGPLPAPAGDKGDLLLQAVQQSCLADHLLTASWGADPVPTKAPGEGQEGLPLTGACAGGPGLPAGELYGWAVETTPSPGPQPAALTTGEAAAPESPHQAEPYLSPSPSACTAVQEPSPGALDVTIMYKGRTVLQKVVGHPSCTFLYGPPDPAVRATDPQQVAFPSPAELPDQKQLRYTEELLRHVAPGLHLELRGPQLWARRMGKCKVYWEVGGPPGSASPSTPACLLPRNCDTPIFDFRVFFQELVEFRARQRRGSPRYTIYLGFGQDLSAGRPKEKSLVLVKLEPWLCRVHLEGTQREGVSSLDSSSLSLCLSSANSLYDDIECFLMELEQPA

Study 1
Target: Centromere-binding protein 1, full length, N-terminal tag (CBF1, Saccharomyces cerevisiae, UniProt P17106, residues 1-351)
UniProt P17106, sequence (whole entry, looked up): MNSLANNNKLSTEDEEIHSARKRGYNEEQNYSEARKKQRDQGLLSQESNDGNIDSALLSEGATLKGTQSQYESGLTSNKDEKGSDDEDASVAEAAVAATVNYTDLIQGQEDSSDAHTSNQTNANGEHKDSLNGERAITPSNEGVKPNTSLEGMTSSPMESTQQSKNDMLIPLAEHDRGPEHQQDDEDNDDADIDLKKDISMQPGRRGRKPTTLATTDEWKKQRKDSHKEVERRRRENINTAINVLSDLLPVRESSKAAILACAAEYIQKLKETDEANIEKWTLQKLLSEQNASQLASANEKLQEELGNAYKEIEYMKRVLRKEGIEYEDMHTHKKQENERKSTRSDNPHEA
Technique: protein-binding microarray
Molecule type: double-stranded DNA, one strand shown
Matrix: in vitro
Tested at: 0.8 µM
Setting: whole 60-bp probe, no competitor
Direction: higher = stronger binding
`GAAGCAGTACGCTATCATGTGATGAAATATATTTAGGTCTTGATTCGCTTGACGCTGCTG` has a fluorescence intensity of 3460 a.u.
`GAATATATCACTATCCACGTGATATTAAATCGTTAGGTCTTGATTCGCTTGACGCTGCTG` has a fluorescence intensity of 10100 a.u.
`CTACGTATGTCTCAGCACGTCCTTCGAGCGTGGTTCGTCTTGATTCGCTTGACGCTGCTG` gave a fluorescence intensity of 511 a.u.

Study 2
Target: Histone acetyltransferase KAT6A, winged helix 1, GST fusion (KAT6A, Homo sapiens, UniProt Q92794, residues 1-85)
Technique: protein binding microarray
Molecule type: double-stranded DNA, one strand shown
Matrix: in vitro
Tested at: not given
Setting: 8-mer, flanks averaged, mean of 2 arrays, mostly near background
Baseline: not given
Direction: higher = stronger binding
Target sequence (chain): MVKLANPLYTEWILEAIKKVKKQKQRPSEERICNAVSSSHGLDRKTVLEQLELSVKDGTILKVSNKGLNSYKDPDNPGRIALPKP
`CCCCTATA` has an E-score of -0.0336.
`ACCAGCCA` has an E-score of -0.297.
`ATTACGCG` gave an E-score of 0.271.
`AAGTCCAG` gave an E-score of -0.22.

Single results of other studies
IRF5 S451D/S453D/S456D/S462D full length, phosphomimetic: Interferon regulatory factor 5, full length, phosphomimetic (IRF5, Homo sapiens, UniProt Q13568-2, residues 1-514, S451D/S453D/S456D/S462D)
`GCCTAGCACTCATTTCTCAACCATTTTACTGTGCTAGTCTTGATTCGCTTGACGCTGCTG`: “fitted relative affinity” 1.61 z-score (IRF5 S451D/S453D/S456D/S462D full length, phosphomimetic; protein-binding microarray; double-stranded DNA, one strand shown, in vitro; 940 nM top, 60-bp whole probe, with: salmon DNA 0.4 mg/ml; baseline: random background probes, higher = stronger binding).
The fold induction of `PhoQ, residues 284 288 289 292 302 303 AMDMFI` is reported as 3.11 (PhoP, residues 12 14 15 18 19 FWNTL (Escherichia coli, UniProt P23836); Sort-seq, refers to: YFP reporter; E. coli; PhoQ-PhoP variant library, with: 10 µM Mg2+; baseline: high Mg2+ state, higher = stronger signaling).
The log fluorescence of `GCCTAGCACTTAGATACCAGTTTCGATTAGTGCTAGGTCTTGATTCGCTTGACGCTGCTG` is reported as 8.75 z-score (Interferon regulatory factor 7, full length, phosphomimetic (IRF7, Homo sapiens, UniProt Q92985, residues 1-503, S101K/S471D/S472D/S475D/S476D/S477D/S483D/S484D/S487D); protein-binding microarray; double-stranded DNA, one strand shown, in vitro; 250 nM, 60-bp whole probe, with: salmon DNA 0.4 mg/ml; baseline: random background probes, higher = stronger binding).
For `GCCTAGCACGACGGTCTCTGTTTCGGGACGTGCTAGGTCTTGATTCGCTTGACGCTGCTG`, “fitted relative affinity” read 2.71 z-score (IRF5 S451D/S453D/S456D/S462D full length, phosphomimetic; protein-binding microarray; double-stranded DNA, one strand shown, in vitro; 940 nM top, 60-bp whole probe, with: salmon DNA 0.4 mg/ml; baseline: random background probes, higher = stronger binding).
